Measured values of several laboratories.
Numbered parts are unrelated; each lists some results of a single study.
UniProt Q13153, sequence (whole entry, looked up): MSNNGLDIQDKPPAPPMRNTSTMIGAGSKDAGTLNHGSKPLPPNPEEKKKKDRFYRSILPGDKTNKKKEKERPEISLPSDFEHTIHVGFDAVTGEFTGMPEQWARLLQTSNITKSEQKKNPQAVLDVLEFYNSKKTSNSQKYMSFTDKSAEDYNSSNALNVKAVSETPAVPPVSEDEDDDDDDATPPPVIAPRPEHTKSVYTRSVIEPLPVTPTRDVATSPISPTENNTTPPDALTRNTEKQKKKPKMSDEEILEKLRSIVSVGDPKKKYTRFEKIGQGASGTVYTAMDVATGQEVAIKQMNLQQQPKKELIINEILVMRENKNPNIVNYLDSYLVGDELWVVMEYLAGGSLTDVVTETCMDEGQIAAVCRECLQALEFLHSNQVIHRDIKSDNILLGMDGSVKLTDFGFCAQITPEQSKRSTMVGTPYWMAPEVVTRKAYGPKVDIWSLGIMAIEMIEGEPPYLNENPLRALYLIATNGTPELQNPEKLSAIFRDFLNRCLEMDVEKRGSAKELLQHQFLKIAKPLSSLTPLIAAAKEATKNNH
UniProt Q9UM73, sequence (whole entry, unmodified, looked up): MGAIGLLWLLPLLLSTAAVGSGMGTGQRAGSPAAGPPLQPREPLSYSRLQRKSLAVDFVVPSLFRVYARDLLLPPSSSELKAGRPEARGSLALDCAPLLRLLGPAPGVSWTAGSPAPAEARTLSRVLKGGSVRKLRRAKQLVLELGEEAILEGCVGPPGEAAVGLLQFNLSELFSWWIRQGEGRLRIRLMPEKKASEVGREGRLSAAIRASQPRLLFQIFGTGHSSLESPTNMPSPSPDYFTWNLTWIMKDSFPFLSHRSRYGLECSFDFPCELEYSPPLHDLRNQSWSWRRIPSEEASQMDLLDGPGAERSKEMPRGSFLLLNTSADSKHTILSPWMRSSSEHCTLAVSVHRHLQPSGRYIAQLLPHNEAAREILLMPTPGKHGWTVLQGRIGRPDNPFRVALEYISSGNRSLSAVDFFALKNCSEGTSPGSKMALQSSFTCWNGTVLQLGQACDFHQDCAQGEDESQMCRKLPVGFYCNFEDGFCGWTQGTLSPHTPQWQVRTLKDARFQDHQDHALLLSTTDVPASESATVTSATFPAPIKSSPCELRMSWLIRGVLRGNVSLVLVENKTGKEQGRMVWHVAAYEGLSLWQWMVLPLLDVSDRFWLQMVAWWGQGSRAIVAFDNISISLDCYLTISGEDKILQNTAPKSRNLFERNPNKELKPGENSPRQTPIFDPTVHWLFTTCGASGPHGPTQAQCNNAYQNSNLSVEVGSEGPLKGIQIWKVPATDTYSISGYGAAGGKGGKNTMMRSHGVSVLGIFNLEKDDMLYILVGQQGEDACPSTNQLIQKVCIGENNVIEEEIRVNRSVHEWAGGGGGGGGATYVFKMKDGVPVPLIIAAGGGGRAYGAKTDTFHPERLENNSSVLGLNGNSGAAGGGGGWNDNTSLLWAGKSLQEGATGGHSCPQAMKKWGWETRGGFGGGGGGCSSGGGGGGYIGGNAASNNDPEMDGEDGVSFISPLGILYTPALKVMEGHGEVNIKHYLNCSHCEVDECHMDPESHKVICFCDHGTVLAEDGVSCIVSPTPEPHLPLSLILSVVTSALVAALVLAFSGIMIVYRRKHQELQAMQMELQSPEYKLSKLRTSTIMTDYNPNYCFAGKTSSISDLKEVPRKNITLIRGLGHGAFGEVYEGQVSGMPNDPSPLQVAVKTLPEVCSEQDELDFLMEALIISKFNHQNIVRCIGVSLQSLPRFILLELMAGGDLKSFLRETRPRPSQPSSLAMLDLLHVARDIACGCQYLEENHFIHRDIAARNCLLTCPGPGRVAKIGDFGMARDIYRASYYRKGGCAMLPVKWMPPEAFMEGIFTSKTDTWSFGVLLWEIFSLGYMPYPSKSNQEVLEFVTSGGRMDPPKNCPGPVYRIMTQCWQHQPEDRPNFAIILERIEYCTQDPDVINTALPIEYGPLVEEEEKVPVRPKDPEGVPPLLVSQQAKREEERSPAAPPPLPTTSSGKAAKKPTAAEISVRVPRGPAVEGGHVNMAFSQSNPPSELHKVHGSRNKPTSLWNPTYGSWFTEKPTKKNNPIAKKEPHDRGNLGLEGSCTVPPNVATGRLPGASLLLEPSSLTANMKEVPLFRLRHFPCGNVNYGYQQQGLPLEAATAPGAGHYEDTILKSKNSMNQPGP
UniProt Q8WTQ7, sequence (whole entry, looked up): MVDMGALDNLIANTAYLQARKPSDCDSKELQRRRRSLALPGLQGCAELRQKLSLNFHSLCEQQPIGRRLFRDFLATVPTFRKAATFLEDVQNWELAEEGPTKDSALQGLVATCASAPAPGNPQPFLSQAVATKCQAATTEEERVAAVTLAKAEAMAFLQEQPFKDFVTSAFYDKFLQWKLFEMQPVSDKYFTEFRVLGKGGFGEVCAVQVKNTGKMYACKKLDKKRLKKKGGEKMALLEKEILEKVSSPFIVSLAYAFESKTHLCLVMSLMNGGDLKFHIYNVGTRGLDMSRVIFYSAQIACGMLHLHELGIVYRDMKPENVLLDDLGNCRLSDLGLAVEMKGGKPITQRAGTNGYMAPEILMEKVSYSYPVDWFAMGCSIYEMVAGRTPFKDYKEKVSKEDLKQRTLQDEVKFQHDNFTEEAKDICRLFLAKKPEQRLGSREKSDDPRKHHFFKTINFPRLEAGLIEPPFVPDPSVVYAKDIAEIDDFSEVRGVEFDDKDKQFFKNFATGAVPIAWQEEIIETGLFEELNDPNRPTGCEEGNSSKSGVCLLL
UniProt P08069, sequence (whole entry, looked up): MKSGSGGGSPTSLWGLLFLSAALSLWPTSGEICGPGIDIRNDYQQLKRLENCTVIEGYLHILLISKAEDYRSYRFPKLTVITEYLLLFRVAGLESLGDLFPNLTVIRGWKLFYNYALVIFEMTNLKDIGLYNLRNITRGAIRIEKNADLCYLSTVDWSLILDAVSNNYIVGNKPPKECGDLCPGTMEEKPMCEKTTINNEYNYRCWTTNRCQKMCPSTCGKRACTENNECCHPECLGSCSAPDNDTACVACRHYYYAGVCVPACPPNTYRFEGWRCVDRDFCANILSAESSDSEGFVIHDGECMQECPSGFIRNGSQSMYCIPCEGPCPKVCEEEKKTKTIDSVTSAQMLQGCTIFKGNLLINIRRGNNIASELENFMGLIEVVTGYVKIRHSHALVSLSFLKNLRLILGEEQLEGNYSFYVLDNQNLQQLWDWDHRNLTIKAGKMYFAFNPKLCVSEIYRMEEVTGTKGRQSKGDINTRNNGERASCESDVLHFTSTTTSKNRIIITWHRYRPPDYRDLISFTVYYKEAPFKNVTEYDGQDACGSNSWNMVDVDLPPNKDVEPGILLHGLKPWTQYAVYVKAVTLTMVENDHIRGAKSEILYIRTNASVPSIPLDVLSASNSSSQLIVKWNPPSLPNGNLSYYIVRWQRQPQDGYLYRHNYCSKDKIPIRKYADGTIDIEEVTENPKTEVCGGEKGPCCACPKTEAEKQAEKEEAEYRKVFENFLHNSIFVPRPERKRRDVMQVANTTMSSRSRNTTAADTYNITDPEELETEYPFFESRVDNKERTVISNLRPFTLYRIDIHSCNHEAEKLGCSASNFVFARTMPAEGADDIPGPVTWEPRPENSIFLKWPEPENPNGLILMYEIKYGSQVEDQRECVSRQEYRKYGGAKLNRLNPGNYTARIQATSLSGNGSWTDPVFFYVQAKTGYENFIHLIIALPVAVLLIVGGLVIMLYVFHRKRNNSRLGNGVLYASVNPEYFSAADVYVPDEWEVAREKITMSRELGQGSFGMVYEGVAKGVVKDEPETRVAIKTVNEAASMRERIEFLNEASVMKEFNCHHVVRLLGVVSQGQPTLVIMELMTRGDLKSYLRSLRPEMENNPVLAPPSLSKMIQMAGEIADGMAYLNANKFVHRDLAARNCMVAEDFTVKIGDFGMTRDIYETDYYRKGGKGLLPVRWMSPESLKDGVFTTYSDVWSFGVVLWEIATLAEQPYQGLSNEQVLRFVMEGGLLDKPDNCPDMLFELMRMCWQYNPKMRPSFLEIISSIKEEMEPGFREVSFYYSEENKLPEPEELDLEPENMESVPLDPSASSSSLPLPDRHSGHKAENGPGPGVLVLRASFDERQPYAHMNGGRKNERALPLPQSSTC
UniProt Q9HBY8, sequence (whole entry, looked up): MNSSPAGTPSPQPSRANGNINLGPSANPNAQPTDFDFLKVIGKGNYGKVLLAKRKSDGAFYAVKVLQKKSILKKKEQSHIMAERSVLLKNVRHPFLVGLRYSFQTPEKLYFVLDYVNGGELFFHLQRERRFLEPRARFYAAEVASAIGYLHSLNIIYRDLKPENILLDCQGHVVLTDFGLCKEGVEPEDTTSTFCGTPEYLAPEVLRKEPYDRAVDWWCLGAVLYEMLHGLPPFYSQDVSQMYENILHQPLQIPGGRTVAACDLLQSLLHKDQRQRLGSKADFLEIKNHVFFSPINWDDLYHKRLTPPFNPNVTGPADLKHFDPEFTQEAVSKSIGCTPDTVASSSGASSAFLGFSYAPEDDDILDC
UniProt Q9BQI3, sequence (whole entry, looked up): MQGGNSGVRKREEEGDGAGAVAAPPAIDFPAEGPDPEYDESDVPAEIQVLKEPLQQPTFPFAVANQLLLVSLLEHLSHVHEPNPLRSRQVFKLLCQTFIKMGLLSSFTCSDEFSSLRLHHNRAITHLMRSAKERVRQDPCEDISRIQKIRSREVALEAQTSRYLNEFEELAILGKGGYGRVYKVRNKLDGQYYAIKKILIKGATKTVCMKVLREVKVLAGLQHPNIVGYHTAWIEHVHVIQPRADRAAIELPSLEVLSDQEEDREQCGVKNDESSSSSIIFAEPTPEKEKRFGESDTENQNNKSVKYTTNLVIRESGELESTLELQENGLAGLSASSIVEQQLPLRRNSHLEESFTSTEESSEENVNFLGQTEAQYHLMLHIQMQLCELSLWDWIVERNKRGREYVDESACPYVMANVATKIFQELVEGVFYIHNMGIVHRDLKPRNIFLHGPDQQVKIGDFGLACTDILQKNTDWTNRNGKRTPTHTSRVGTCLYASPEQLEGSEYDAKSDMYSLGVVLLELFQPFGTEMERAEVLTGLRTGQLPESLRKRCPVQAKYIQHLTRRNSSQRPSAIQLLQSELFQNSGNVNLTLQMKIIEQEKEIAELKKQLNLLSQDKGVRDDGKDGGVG

Block 1 — observed: cell-free assay; method: competition with immobilised ligand; tested at: 0.1 µM
Compound: Cc1cc(C)c(-n2ccn3nc(-c4cccnc4)cc23)cc1NC(=O)c1cc(C#N)cc(S(F)(F)(F)(F)F)c1
ALK tyrosine kinase receptor (ALK, Homo sapiens, UniProt Q9UM73, L1196M) — remaining binding: 99.6%.
The remaining binding was 92.9% (Macrophage colony-stimulating factor 1 receptor, autoinhibited (CSF1R, Homo sapiens, UniProt P07333)).
Serine/threonine-protein kinase haspin (HASPIN, Homo sapiens, UniProt Q8TF76) — remaining binding: 64%.
It gave 98.5% for remaining binding (Phosphatidylinositol 4,5-bisphosphate 3-kinase catalytic subunit gamma isoform (PIK3CG, Homo sapiens, UniProt P48736)).
It gave 76% for remaining binding (Cyclin-dependent kinase 15 (CDK15, Homo sapiens, UniProt Q96Q40)).
It gave 81.8% for remaining binding (Tyrosine-protein kinase JAK2, JH1 (JAK2, Homo sapiens, UniProt O60674)).
The remaining binding was 100% (Tyrosine-protein kinase Blk (BLK, Homo sapiens, UniProt P51451)).
For Eukaryotic translation initiation factor 2-alpha kinase 1 (EIF2AK1, Homo sapiens, UniProt Q9BQI3): remaining binding read 100%.
The remaining binding was 94.1% (Death-associated protein kinase 1 (DAPK1, Homo sapiens, UniProt P53355)).
The remaining binding was 65.6% (Rhodopsin kinase GRK7 (GRK7, Homo sapiens, UniProt Q8WTQ7)).
Proto-oncogene tyrosine-protein kinase Src (SRC, Homo sapiens, UniProt P12931) — remaining binding: 92.6%.
The remaining binding was 84.7% (Insulin-like growth factor 1 receptor (IGF1R, Homo sapiens, UniProt P08069)).
It gave 94.3% for remaining binding (Serine/threonine-protein kinase 32B (STK32B, Homo sapiens, UniProt Q9NY57)).
The remaining binding was 0.1% (Epithelial discoidin domain-containing receptor 1 (DDR1, Homo sapiens, UniProt Q08345)).
The remaining binding was 48.5% (STE20-like serine/threonine-protein kinase (SLK, Homo sapiens, UniProt Q9H2G2)).
The remaining binding was 100% (Serine/threonine-protein kinase Nek1 (NEK1, Homo sapiens, UniProt Q96PY6)).

Block 2 — host: mouse; matrix: microsomes or S9; tested at: 2 µM; time: 0.5 h
The remaining compound of `COc1ccc(N2C(=O)CC(NNC(=O)c3cc(C(F)(F)F)n[nH]3)C2=O)cc1` (centres unmarked) is reported as 35.7%.
`COc1cc(-c2nnc3ccc4ccccc4n23)cc(OC)c1OC` has a remaining compound of 20.9%.
`CC(C)n1ncc2c1N=C(O)CC2C1CCCCC1` (centres unmarked) gave a remaining compound of 3.87%.
With `Cc1ccc(C(C)C)c(OCCNS(C)(=O)=O)c1` the remaining compound was 63.5%.

Block 3 — action: inhibitor; tested at: 1 µM
SMILES: CO[C@@H]1[C@H](N(C)C(=O)c2ccccc2)C[C@H]2O[C@]1(C)n1c3ccccc3c3c4c(c5c6ccccc6n2c5c31)C(=O)NC4
Non-receptor tyrosine-protein kinase TYK2, JH1 domain (TYK2, Homo sapiens, UniProt P29597) — inhibition: 7%.
It gave 23% for inhibition (Tyrosine-protein kinase ABL1, phosphorylated (ABL1, Homo sapiens, UniProt P00519, Y253F); enzyme activity).
It gave 35% for inhibition (Serine/threonine-protein kinase 10 (STK10, Homo sapiens, UniProt O94804); enzyme activity).
For Serine/threonine-protein kinase Sgk2 (SGK2, Homo sapiens, UniProt Q9HBY8); enzyme activity: inhibition read 98%.
Serine/threonine-protein kinase PAK 1 (PAK1, Homo sapiens, UniProt Q13153); enzyme activity — inhibition: 20%.

Block 4 — cell line: mouse MPNST tumor cells; method: high-content nuclear imaging; refers to: cell number; tested at: 10 µM; time: 12 h; notes: mean of 2 replicates; relative to: plate mean; reading: higher = more cells
`CCOC(=O)Nc1ccc2c(c1)N(C(=O)CCN1CCOCC1)c1ccccc1S2` gave a nuclei count of 0.275 z-score.
`CCOc1ccc(NC(C)=O)cc1` has a nuclei count of 0.0673 z-score.
With `C=CCNC(=O)c1cc([N+](=O)[O-])cc2c(=O)[nH]c(Nc3ccc(Cl)c(Cl)c3)nc12` the nuclei count was -0.252 z-score.
`O=C(O)c1cn(-c2ccc(F)cc2)c2cc(N3CCNCC3)c(F)cc2c1=O` has a nuclei count of 1.07 z-score.
`COc1ccc(-c2cc(=S)ss2)cc1` has a nuclei count of 0.459 z-score.
The nuclei count of `COc1cc(NC(C)CCCN)c2ncccc2c1` (centres unmarked) is reported as -2.1 z-score.

Block 5 — cell line: A-375; tested at: 100 µM; time: 36 h
With `CCOC(=O)[N-]c1cn(N2CCOCC2)n[o+]1` the viability was 81.4%.
`CN1C(C)(C)CCCC1(C)C` has a viability of 106%.
With `O=C(/C=C/c1ccc(O)c2c1[C@H](C(=O)O[C@H](Cc1ccc(O)c(O)c1)C(=O)O)[C@@H](c1ccc(O)c(O)c1)O2)O[C@H](Cc1ccc(O)c(O)c1)C(=O)O` the viability was 116%.
`CO[C@@H]1[C@@H](O[C@@H]2O[C@H](C)[C@@H](O[C@H]3C[C@@](C)(O)[C@@H](O)[C@H](C)O3)[C@H](N(C)C)[C@H]2O)[C@@H](CC=O)C[C@@H](C)[C@@H](O[C@H]2CC[C@H](N(C)C)[C@@H](C)O2)/C=C/C=C/C[C@@H](C)OC(=O)C[C@H]1OC(C)=O` gave a viability of 62.8%.

A few entries again (block 3):
Serine/threonine-protein kinase PAK 1 (PAK1, Homo sapiens, UniProt Q13153); enzyme activity — inhibition: 20%.
It gave 23% for inhibition (Tyrosine-protein kinase ABL1, phosphorylated (ABL1, Homo sapiens, UniProt P00519, Y253F); enzyme activity).
For Serine/threonine-protein kinase Sgk2 (SGK2, Homo sapiens, UniProt Q9HBY8); enzyme activity: inhibition read 98%.
It gave 35% for inhibition (Serine/threonine-protein kinase 10 (STK10, Homo sapiens, UniProt O94804); enzyme activity).
